Measurements collected from several papers.
Protocols differ between the studies behind these lines. ± gives the spread as reported.
Technique: steady-state kinetics
B1: protein Y93P (Thermus thermophilus, UniProt Q5SKR5); chain MSAPKPFVIGIAGGTASGKTTLAQALARTLGERVALLPMDHYYKDLGHLPLEERLRVNYDHPDAFDLALYLEHAQALLRGLPVEMPVYDFRAPTRSPRRTPVRPAPVVILEGILVLYPKELRDLMDLKVFVDADADERFIRRLKRDVLERGRSLEGVVAQYLEQVKPMHLHFVEPTKRYADVIVPRGGQNPVALEMLAAKALARLARMGAA
B2: Ma-WS/DGAT (Marinobacter nauticus); chain MTPLNPTDQLFLWLEKRQQPMHVGGLQLFSFPEGAPDDYVAQLADQLRQKTEVTAPFNQRLSYRLGQPVWVEDEHLDLEHHFRFEALPTPGRIRELLSFVSAEHSHLMDRERPMWEVHLIEGLKDRQFALYTKVHHSLVDGVSAMRMATRMLSENPDEHGMPPIWDLPCLSRDRGESDGHSLWRSVTHLLGLSGRQLGTIPTVAKELLKTINQARKDPAYDSIFHAPRCMLNQKITGSRRFAAQSWCLKRIRAVCEAYGTTVNDVVTAMCAAALRTYLMNQDALPEKPLVAFVPVSLRRDDSSGGNQVGVILASLHTDVQEAGERLLKIHHGMEEAKQRYRHMSPEEIVNYTALTLAPAAFHLLTGLAPKWQTFNVVISNVPGPSRPLYWNGAKLEGMYPVSIDMDRLALNMTLTSYNDQVEFGLIGCRRTLPSLQRMLDYLEQGLAELELNAGL
B3: enzyme A178R/D177A/G159A/M179S/P184R (Levilactobacillus brevis, UniProt Q03Q85); chain MKVTVVGCTHAGTFAIKQILAEHPDAEVTVYERNDVISFLSCGIALYLGGKVADPQGLFYSSPEELQKLGANVQMNHNVLAIDPDQKTVTVEDLTNHAQTTESYDKLVMTSGSWPIVPKIPGIDSDRVKLCKNWAHAQALIEDAKEAKRITVIGAGYIAAELAEAYSTTGHDVTLIARSARVMRKYFDADFTDVIEQDYRDHGVQLALGETVESFTDSATGLTIKTDKNSYETDLAILCIGFRPNTDLLKGKVDMAPNGAIITDDYMRSSNPDIFAAGDSAAVHYNPTHQNAYIPLATNAVRQGILVGKNLVKPTVKYMGTQSSSGLALYDRTIVSTGLTLAAAKQQGLNAEQVIVEDNYRPEFMPSTEPVLMSLVFDPDTHRILGGALMSKYDVSQSANTLSVCIQNENTIDDLAMVDMLFQPNFDRPFNYLNILAQAAQAKVAQSVNA
B4: cyc1 F95H (Streptomyces coelicolor, UniProt Q9K499); chain MHAFPHGTTATPTAIAVPPSLRLPVIEAAFPRQLHPYWPKLQETTRTWLLEKRLMPADKVEEYADGLCYTDLMAGYYLGAPDEVLQAIADYSAWHFVWDDRHDRDIVHGRAGAWRRLRGLLHTALDSPGDHLHHEDTLVAGFADSVRRLYAFLPATWNARFARHFHTVIEAYDREFHNRTRGIVPGVEEYLELRRLTFAHWIWTDLLEPSSGCELPDAVRKHPAYRRAALLSQEFAAWYNDLCSLPKEIAGDEVHNLGISLITHHSLTLEEAIGEVRRRVEECITEFLAVERDALRFADELADGTVRGKELSGAVRANVGNMRNWFSSVYWFHHESGRYMVDSWDDRSTPPYVNNEAAGEK
B5: enzyme (Bacillus pumilus, UniProt A8FFI9); chain EARSIAWSVDEFFKNREGTFVIQEVKEKSPWVYNKKRAKERFAPQSTFKVANALIGLQTGAVRDEYDIKYWDGVKREIDNWNRDHTLGSGMRDSVVWYYQAMARDIGEERMNHWVKAIHYGNKDISGGIDQFWLSSTLRISPIEQVRFLKQLYEETLPFDLKNMRTVKRMMVQEEEKHATLYGKTGSGSDIGWYVGFIKHEHKTYILATNIKGTGIEAKDITYRILKKYHLMEASV
B6: POLK (Homo sapiens, UniProt Q9UBT6); chain MGLNDNKAGMEGLDKEKINKIIMEATKGSRFYGNELKKEKQVNQRIENMMQQKAQITSQQLRKAQLQVDRFAMELEQSRNLSNTIVHIDMDAFYAAVEMRDNPELKDKPIAVGSMSMLSTSNYHARRFGVRAAMPGFIAKRLCPQLIIVPPNFDKYRAVSKEVKEILADYDPNFMAMSLDEAYLNITKHLEERQNWPEDKRRYFIKMGSSVENDNPGKEVNKLSEHERSISPLLFEESPSDVQPPGDPFQVNFEEQNNPQILQNSVVFGTSAQEVVKEIRFRIEQKTTLTASAGIAPNTMLAKVCSDKNKPNGQYQILPNRQAVMDFIKDLPIRKVSGIGKVTEKMLKALGIITCTELYQQRALLSLLFSETSWHYFLHISLGLGSTHLTRDGERKSMSVERTFSEINKAEEQYSLCQELCSELAQDLQKERLKGRTVTIKLKNVNFEVKTRASTVSSVVSTAEEIFAIAKELLKTEIDADFPHPLRLRLMGVRISSFPNEEDRKHQQ
B7: msrA U16C (Clostridium oremlandii, UniProt A8MI53); chain MDTNQKLSIAVFALGCFWGPDAQFGSIKGVVSTRVGYAGGTTNNPSYYNLGDHSESIEIQYDANVITYGELLNIFWNLHNPVYETTNRQYMSRIFYLDDGQKSEALEMKRQIEAANGEKIYTEIVPLENFYLAEGYHQKYYLQNTTKLYQTLKAIYGGFGNLVRSTLAARMNGYIAGNLSIASLKEEMDLVELPEDQYEKVLSIVEEIK
B8: ybiA (Escherichia coli, UniProt P30176); chain MPVRAQRIQHVMQDTIINFYSTSDDYGDFSNFAAWPIKVDGKTWPTSEHYFQAQKFLDEKYREEIRRVSSPMVAARMGRDRSKPLRKNWESVKEQVMRKALRAKFEQHAELRALLLATAPAKLVEHTENDAYWGDGGHGKGKNRLGYLLMELREQLAIEK
B9: sacB Y247F (Priestia megaterium, UniProt D5DC07); chain KGNDSKDFNNSYGISHITRDNMVKIPQQQNSDQFKVPAFDESTIKNIASAKGKNASGNTIDLDVWDSWPLQNADGTVATYHGYQIVFALAGDPKDSNDTSVYLFYKKAGDKSIDSWKNAGRVFKDSDKFVPNDPHLKNQTQEWSGSGTLTKDGKVRLFYTDYSGKQYGKQTLTTAQVNMSQPNDNTLKVDGVEDYKSIFDGDGKIYQTVQQFIDEGGFDTGDNHTLRDPHYIEDNGHKYLVFEANTGTEDGYQGEDSLYNRAYYGGNNPFFQSEKKKLLEGSNKEKASLANGALGIIELNDDYTLKKVMKPLITSNTVTDEIERANIFKKDGKWYLFTDSRGSKMTIDGIGQDDVYMLGYVSNTLTGKYKPLNDTGLVLHMDLDPNDKTFTYSHFAVPQTKGDNVVITSYMTNRGFYEDNHSTFAPSFLVNIDGSKTSVVKDRVLEQGQLTVDED
B10: GMPS (Escherichia coli, UniProt P04079); chain MTENIHKHRILILDFGSQYTQLVARRVRELGVYCELWAWDVTEAQIRDFNPSGIILSGGPESTTEENSPRAPQYVFEAGVPVFGVCYGMQTMAMQLGGHVEASNEREFGYAQVEVVNDSALVRGIEDALTADGKPLLDVWMSHGDKVTAIPSDFITVASTESCPFAIMANEEKRFYGVQFHPEVTHTRQGMRMLERFVRDICQCEALWTPAKIIDDAVARIREQVGDDKVILGLSGGVDSSVTAMLLHRAIGKNLTCVFVDNGLLRLNEAEQVLDMFGDHFGLNIVHVPAEDRFLSALAGENDPEAKRKIIGRVFVEVFDEEALKLEDVKWLAQGTIYPDVIESAASATGKAHVIKSHHNVGGLPKEMKMGLVEPLKELFKDEVRKIGLELGLPYDMLYRHPFPGPGLGVRVLGEVKKEYCDLLRRADAIFIEELRKADLYDKVSQAFTVFLPVRSVGVMGDGRKYDWVVSLRAVETIDFMTAHWAHLPYDFLGRVSNRIINEVNGISRVVYDISGKPPATIEWE
Sequence of UniProt P19337 (whole entry, looked up): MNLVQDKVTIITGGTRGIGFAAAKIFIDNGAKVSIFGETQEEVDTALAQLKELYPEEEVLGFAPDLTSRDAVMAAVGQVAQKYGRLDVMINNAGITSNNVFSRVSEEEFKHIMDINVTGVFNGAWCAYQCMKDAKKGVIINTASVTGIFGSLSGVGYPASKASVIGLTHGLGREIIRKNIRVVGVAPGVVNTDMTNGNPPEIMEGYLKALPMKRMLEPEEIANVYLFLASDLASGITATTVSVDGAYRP
Sequence of UniProt P07379 (whole entry, looked up): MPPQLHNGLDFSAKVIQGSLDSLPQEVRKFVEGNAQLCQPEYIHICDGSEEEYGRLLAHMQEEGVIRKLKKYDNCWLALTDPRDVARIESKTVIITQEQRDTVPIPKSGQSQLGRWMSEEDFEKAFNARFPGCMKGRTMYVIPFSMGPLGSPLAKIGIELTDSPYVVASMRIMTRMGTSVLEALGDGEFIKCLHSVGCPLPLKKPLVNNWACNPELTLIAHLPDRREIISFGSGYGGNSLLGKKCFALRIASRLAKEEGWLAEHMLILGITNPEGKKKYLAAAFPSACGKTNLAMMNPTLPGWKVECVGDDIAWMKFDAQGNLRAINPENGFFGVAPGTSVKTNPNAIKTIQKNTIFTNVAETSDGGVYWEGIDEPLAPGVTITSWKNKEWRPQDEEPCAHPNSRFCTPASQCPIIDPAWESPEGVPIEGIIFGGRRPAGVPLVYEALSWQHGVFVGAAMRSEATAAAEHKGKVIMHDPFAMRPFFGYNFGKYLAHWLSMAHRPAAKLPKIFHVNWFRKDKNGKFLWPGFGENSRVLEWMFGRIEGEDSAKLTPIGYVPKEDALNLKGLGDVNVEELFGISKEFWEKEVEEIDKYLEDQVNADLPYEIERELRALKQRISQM
Sequence of UniProt O60656 (whole entry, looked up): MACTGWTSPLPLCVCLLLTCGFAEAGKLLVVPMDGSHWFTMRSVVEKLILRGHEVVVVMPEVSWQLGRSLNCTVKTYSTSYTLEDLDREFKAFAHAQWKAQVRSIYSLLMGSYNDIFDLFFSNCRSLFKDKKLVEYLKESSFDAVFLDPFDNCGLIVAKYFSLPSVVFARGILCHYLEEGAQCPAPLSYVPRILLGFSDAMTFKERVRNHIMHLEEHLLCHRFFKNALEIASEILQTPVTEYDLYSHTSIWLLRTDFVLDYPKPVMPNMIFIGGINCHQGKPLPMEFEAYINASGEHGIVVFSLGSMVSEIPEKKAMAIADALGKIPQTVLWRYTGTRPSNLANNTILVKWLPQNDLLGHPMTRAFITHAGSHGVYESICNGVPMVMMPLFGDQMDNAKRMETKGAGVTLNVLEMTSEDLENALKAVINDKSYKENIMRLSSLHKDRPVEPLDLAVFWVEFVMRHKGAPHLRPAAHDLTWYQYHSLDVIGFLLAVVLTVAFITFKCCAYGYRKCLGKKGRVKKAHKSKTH
Sequence of UniProt Q29437 (whole entry, looked up): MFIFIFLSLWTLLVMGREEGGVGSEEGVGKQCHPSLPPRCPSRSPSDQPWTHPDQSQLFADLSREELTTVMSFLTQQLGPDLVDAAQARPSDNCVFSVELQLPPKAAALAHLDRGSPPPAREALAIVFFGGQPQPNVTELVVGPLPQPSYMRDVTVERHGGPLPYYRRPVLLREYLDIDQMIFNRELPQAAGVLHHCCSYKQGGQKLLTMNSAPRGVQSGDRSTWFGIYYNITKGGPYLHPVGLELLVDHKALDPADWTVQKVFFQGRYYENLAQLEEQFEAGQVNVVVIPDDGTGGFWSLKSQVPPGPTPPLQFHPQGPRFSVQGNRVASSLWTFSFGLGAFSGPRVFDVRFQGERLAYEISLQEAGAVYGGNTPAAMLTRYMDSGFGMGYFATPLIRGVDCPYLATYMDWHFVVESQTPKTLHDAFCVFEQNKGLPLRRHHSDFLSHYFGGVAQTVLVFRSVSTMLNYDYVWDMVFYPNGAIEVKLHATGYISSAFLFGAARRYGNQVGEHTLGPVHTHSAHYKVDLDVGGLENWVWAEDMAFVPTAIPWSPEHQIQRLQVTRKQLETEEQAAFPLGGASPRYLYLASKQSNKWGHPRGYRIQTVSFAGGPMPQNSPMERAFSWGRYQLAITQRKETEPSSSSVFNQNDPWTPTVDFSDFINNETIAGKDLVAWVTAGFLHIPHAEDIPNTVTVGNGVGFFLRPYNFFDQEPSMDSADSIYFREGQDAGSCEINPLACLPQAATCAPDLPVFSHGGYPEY

For `B1 (protein Y93P)`, the kcat/Km was 8300 M⁻¹ s⁻¹ (Nc1ccn([C@@H]2O[C@H](CO)[C@@H](O)[C@H]2O)c(=O)n1; pH 7.2, 25 °C, KCl 100 mM, added: ATP 100–200 µM).
For `BaiA2 (Clostridium scindens, UniProt P19337)`, the kcat/Km was 8700 M⁻¹ s⁻¹ (C[C@H](CCC(=O)SCCNC(=O)CCNC(=O)[C@H](O)C(C)(C)COP(=O)(O)OP(=O)(O)OC[C@H]1O[C@@H](n2cnc3c(N)ncnc32)[C@H](O)[C@@H]1OP(=O)(O)O)[C@H]1CC[C@H]2[C@@H]3[C@H](O)C[C@@H]4C[C@H](O)CC[C@]4(C)[C@H]3CC[C@]12C; pH 8.7, 37 °C, added: NAD+).
`B2 (Ma-WS/DGAT)` has a kcat/Km of 1860 ± 70 M⁻¹ s⁻¹ (CCCCCC(=O)SCCNC(=O)CCNC(=O)[C@H](O)C(C)(C)COP(=O)(O)OP(=O)(O)OC[C@H]1O[C@@H](n2cnc3c(N)ncnc32)[C@H](O)[C@@H]1OP(=O)(O)O; pH 7.5, 25 °C, NaCl 300 mM, lower limit, not saturable, apparent, added: 1-hexanol 4 mM).
With `B3` the kcat/Km was 11000 ± 2000 M⁻¹ s⁻¹ (NC(=O)C1=CN([C@@H]2O[C@H](COP(=O)(O)OP(=O)(O)OC[C@H]3O[C@@H](n4cnc5c(N)ncnc54)[C@H](O)[C@@H]3O)[C@@H](O)[C@H]2O)C=CC1; pH 7.5, 37 °C, per site).
With `B4 (cyc1 F95H)` the kcat/Km was 2600 ± 100 M⁻¹ s⁻¹ (CC(C)=CCC/C(C)=C/CC/C(C)=C/CO[P@@](=O)(O)OP(=O)(O)O; pH 6.5, 30 °C, added: MgCl2 10 mM).
`B5 (enzyme)` gave a kcat/Km of 4.7e+06 ± 1.4e+06 M⁻¹ s⁻¹ (Cc1onc(-c2ccccc2)c1C(=O)N[C@@H]1C(=O)N2[C@@H]1SC(C)(C)[C@@H]2C(=O)O; pH 7).
`alanine aminopeptidase (Neisseria meningitidis, UniProt Q9JYV4)` has a kcat/Km of 85000 ± 7000 M⁻¹ s⁻¹ (CC[C@H](N)C(=O)Nc1ccc2c(CC(N)=O)cc(=O)oc2c1; pH 7.5, 37 °C).
The kcat/Km of `B6 (POLK)` is reported as 7100 M⁻¹ s⁻¹ (Nc1ncnc2c1ncn2[C@H]1C[C@H](O)[C@@H](COP(=O)(O)OP(=O)(O)OP(=O)(O)O)O1; pH 7.5, 23 °C, MgCl2 5 mM, added: 8-oxoG template).
The kcat/Km of `B7 (msrA U16C)` is reported as 950 M⁻¹ s⁻¹ (CN(C)c1ccc(N=Nc2ccc(S(=O)(=O)N[C@@H](CC[S@+](C)[O-])C(=O)O)cc2)cc1; pH 7.5, 37 °C, 50 mM NaCl, Km above tested range, added: 20 mM DTT reductant).
For `B8 (ybiA)`, the kcat/Km was 1 M⁻¹ s⁻¹ (Nc1nc(N[C@@H]2O[C@H](COP(=O)(O)O)[C@@H](O)[C@H]2O)c(N)c(=O)[nH]1; pH 8, 22 °C, substrate not purified).
With `Plasma amine oxidase (Bos taurus, UniProt Q29437)` the kcat/Km was 1.01e+06 M⁻¹ s⁻¹ (CNCCOc1ccc2cc(CN)ccc2c1; pH 7.2, 30 °C).
For `B9 (sacB Y247F)`, the kcat/Km was 11600 M⁻¹ s⁻¹ (OC[C@H]1O[C@@](CO)(O[C@H]2O[C@H](CO)[C@@H](O)[C@H](O)[C@H]2O)[C@@H](O)[C@@H]1O; pH 6.9).
The kcat/Km of `B10 (GMPS)` is reported as 1400 M⁻¹ s⁻¹ (O=c1[nH]c(=O)c2ncn([C@@H]3O[C@H](COP(=O)(O)O)[C@@H](O)[C@H]3O)c2[nH]1; apparent).
The kcat/Km of `Pck1 (Rattus norvegicus, UniProt P07379)` is reported as 1e+06 M⁻¹ s⁻¹ (O=C(O)CC(=O)C(=O)O; pH 7.5, 25 °C, added: OAA, GTP).
With `UGT1A9 (Homo sapiens, UniProt O60656)` the Km was 80.6 µM (O=[N+]([O-])c1ccc(O)cc1; pH 7.4, 37 °C).

Excerpt of the above:
The kcat/Km of `Pck1 (Rattus norvegicus, UniProt P07379)` is reported as 1e+06 M⁻¹ s⁻¹ (O=C(O)CC(=O)C(=O)O; pH 7.5, 25 °C, added: OAA, GTP).
